{"data": "Experimental data of several laboratories", "note": "A part holds a random share of what one study measured. Values joined by “and” are separate records of one study, mostly repeats; a detail may differ.", "sequence of UniProt P9WI81 (whole entry, looked up)": "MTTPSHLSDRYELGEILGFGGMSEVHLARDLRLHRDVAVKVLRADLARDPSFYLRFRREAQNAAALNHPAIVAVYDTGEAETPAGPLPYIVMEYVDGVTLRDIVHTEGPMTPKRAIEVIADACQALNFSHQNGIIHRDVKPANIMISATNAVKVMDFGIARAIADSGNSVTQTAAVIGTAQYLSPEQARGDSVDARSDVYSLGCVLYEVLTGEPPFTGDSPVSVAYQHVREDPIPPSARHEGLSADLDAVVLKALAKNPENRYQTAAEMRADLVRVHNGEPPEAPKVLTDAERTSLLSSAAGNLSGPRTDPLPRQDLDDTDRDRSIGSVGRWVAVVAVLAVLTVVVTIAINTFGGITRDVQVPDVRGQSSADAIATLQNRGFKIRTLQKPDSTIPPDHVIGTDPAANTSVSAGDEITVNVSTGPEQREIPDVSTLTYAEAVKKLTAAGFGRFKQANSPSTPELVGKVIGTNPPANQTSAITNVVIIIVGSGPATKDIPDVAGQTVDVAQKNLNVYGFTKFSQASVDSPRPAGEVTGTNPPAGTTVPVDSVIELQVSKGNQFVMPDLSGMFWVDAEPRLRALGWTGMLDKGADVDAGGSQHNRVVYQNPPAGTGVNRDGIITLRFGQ"}
{"data": "Set 1", "target": "UDP-N-acetylglucosamine--peptide N-acetylglucosaminyltransferase 110 kDa subunit (OGT, Homo sapiens, UniProt O15294)", "read-out": "enzyme activity", "mode": "inhibitor", "technique": "fluorescence", "sequence of UniProt O15294 (whole entry, looked up)": "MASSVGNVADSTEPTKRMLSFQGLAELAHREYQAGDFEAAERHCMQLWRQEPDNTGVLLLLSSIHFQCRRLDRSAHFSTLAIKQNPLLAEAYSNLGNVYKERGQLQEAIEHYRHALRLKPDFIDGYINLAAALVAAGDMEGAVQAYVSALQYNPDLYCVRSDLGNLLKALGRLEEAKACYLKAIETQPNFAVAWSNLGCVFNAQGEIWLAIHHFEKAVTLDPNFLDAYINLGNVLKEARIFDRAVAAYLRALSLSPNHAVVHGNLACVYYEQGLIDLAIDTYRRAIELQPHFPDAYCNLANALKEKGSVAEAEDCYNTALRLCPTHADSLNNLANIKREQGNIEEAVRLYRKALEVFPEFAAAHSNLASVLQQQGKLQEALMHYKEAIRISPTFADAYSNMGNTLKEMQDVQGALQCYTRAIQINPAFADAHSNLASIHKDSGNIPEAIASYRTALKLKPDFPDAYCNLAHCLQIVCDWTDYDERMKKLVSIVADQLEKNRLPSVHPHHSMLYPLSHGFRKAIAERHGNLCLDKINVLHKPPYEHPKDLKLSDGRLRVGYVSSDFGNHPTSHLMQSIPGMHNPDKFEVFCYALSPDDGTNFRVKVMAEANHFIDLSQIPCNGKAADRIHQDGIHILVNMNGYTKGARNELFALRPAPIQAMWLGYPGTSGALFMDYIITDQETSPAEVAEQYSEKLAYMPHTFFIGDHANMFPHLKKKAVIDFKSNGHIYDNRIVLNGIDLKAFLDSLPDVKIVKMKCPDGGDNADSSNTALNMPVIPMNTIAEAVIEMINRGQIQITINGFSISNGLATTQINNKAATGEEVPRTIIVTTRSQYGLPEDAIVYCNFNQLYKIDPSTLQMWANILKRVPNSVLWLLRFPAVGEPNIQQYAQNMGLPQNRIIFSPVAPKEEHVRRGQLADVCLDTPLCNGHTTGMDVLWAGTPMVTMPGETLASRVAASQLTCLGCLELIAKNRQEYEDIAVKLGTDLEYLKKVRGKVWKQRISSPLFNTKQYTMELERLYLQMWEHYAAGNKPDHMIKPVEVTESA"}
{"Structure (SMILES)": "CC[C@H](C)[C@H](NC(=O)[C@H](CO)NC(=O)[C@H](Cc1ccc(O)cc1)NC(=O)[C@H](CCCCN)NC(=O)[C@@H]1CCCN1C(=O)[C@H](CCSC)NC(=O)[C@H](Cc1ccccc1)NC(=O)[C@H](CCSC)NC(=O)[C@@H](NC(=O)[C@@H]1CCCN1C(=O)[C@H](Cc1ccccc1)NC(=O)[C@H](CC(=O)O)NC(=O)CN)C(C)C)C(=O)O", "IC50 [µM]": "> 200"}
{"Structure (SMILES)": "CC[C@H](C)[C@H](NC(=O)[C@H](CO)NC(=O)[C@H](Cc1ccc(O)cc1)NC(=O)[C@H](CCCCN)NC(=O)[C@@H]1CCCN1C(=O)[C@H](CCSC)NC(=O)[C@@H](N)Cc1ccccc1)C(=O)O", "IC50 [µM]": "> 200"}
{"Structure (SMILES)": "CC[C@H](C)[C@H](NC(=O)[C@H](CCC(N)=O)NC(=O)[C@H](Cc1ccc(O)cc1)NC(=O)[C@H](CCC(N)=O)NC(=O)[C@@H]1CCCN1C(=O)[C@H](CCSC)NC(=O)[C@@H](N)Cc1ccc(O)cc1)C(=O)O", "IC50 [µM]": "> 200"}
{"Structure (SMILES)": "CSCC[C@H](NC(=O)[C@H](Cc1ccccc1)NC(=O)[C@H](CCSC)NC(=O)[C@@H](NC(=O)[C@@H]1CCCN1C(=O)[C@H](Cc1ccccc1)NC(=O)[C@H](CC(=O)O)NC(=O)CN)C(C)C)C(=O)O", "IC50 [µM]": "> 200"}
{"data": "Set 2", "SMILES": "C=CCN1C(=O)C(O)(C(=O)O)Oc2cc(F)ccc21 (centres unmarked)", "organism": "Arabidopsis thaliana", "strain": "Col-0"}
{"read-out": "root length", "sample": "seedlings", "tested at": "12.5 µg/mL", "reference": "water control", "inhibition": "14.5%"}
{"read-out": "root length", "tested at": "25.0 µg/mL", "time": "7 days", "setting": "seed germination, dark", "inhibition": "20.1%"}
{"read-out": "root length", "tested at": "50.0 µg/mL", "time": "7 days", "setting": "seed germination, dark", "inhibition": "28.5%"}
{"read-out": "hypocotyl length", "tested at": "6.25 µg/mL", "time": "7 days", "setting": "seed germination, dark", "inhibition": "2.1%"}
{"data": "Mixed results"}
{"Structure (SMILES)": "CCCCC[C@@H]1CC(=O)N[C@@H](C(C)C)C(=O)N[C@H](CCCNC(=N)N)C(=O)N[C@@H](C(C)C)C(=O)NCC(=O)N2CCC[C@H]2C(=O)N[C@@H](CC(C)C)C(=O)N[C@H](CCCNC(=N)N)C(=O)N[C@@H](CCC(=O)O)C(=O)N[C@H](Cc2ccc(O)cc2)C(=O)N[C@H](Cc2c[nH]c3ccccc23)C(=O)NCCCC(=O)O1", "test system": "mouse, S. aureus infection", "conditions": "subcutaneous, 30 mg/kg, day 1", "quantity": "survival", "value": "100%"}
{"Structure (SMILES)": "Cn1cc(-c2cccc(CN3CCC4(CC3)COc3c4ccc4c3CN([C@H]3CCC(=O)NC3=O)C4=O)c2)cn1", "test system": "Crbn I391V mouse, MC-38 tumour", "conditions": "oral, daily, 30 mg/kg, animals reaching endpoint, with: vehicle i.p.", "quantity": "time to tumour volume 2000 mm3", "value": "36 days and 33 days and 39 days and 25 days and 22 days and 20 days"}
{"Structure (SMILES)": "O=C(Nc1ccccc1)Nc1cccc(Oc2ccc3nccn3n2)c1", "target or system": "Serine/threonine-protein kinase PknB (pknB, Mycobacterium tuberculosis, UniProt P9WI81)", "assay": "binding", "conditions": "1 µM", "quantity": "remaining binding", "value": "72%"}
{"note": "Excerpt of the above (set 2):"}
{"read-out": "root length", "sample": "seedlings", "tested at": "12.5 µg/mL", "reference": "water control", "inhibition": "14.5%"}
